Published values of several laboratories.
Values joined by “and” are separate records of one study, mostly repeats; a detail may differ. ± gives the spread as reported.
HTR2A: 5-hydroxytryptamine receptor 2A (HTR2A, Homo sapiens, UniProt P28223)
Chain of UniProt P28223 (whole entry, looked up): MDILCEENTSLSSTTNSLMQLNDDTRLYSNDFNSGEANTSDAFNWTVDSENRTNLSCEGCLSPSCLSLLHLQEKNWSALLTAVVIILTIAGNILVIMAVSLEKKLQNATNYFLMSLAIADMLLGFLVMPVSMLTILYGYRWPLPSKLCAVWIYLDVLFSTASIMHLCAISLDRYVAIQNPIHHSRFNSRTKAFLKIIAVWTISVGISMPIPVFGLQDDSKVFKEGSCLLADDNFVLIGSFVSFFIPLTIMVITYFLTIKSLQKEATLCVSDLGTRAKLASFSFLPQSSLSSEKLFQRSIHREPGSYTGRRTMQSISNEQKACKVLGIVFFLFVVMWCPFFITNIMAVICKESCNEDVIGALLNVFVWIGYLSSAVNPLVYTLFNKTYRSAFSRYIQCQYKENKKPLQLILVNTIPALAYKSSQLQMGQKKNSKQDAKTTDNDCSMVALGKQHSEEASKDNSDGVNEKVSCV
Chain of UniProt Q64663 (whole entry, unmodified, looked up): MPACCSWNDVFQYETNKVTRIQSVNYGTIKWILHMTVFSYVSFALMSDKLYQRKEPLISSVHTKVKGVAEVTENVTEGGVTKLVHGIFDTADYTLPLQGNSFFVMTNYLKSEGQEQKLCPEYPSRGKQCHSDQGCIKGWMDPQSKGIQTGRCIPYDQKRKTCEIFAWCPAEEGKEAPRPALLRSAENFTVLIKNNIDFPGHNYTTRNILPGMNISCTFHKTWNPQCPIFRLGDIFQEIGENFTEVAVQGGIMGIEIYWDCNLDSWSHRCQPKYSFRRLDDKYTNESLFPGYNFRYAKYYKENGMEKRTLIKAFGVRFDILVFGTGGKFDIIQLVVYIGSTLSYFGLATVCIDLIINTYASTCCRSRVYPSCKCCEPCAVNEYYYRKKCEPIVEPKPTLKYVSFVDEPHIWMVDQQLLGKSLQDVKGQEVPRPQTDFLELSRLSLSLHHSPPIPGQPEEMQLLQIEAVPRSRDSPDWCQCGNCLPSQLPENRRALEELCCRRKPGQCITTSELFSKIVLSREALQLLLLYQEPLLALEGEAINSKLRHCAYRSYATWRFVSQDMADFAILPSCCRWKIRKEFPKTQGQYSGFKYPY
Chain of UniProt P22314 (whole entry, looked up): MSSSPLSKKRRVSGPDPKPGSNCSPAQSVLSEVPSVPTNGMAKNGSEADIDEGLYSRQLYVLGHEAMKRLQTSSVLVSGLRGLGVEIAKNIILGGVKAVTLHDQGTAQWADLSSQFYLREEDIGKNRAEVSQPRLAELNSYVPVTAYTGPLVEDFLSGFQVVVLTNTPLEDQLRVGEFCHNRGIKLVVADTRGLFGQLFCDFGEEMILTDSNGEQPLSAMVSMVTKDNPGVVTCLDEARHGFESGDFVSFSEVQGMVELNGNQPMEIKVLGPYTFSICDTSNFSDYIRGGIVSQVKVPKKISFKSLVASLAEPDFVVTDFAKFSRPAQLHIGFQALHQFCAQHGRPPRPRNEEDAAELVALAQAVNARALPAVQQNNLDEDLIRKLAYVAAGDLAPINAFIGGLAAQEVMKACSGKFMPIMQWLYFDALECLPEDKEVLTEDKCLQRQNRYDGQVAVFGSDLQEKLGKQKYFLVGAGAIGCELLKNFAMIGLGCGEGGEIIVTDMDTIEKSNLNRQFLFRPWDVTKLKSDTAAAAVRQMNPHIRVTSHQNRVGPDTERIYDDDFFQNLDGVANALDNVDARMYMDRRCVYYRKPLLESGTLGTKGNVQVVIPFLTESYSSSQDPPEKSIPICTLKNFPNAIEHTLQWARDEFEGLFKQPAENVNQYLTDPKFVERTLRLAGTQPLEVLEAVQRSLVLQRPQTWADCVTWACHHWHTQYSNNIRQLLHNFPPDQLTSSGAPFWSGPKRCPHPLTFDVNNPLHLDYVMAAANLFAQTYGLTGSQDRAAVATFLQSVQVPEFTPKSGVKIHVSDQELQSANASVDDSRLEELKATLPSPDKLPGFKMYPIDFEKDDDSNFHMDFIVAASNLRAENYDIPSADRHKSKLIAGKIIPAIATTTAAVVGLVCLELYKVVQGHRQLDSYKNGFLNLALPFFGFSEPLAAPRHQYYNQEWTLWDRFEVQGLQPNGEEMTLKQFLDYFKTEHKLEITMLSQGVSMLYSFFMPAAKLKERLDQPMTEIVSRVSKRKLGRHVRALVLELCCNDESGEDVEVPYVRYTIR
Chain of UniProt P51575 (whole entry, unmodified, looked up): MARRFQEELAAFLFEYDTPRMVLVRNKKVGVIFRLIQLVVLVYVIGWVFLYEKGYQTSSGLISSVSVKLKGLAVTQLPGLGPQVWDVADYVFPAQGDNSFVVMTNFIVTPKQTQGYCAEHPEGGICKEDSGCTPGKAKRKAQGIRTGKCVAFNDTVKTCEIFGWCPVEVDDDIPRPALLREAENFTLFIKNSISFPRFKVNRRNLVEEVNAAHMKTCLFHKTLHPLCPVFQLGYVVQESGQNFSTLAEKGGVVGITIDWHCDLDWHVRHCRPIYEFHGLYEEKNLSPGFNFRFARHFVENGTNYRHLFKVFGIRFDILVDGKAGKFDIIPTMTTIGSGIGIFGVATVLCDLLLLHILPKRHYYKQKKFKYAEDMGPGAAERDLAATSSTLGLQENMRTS
Chain of UniProt Q16774 (whole entry, unmodified, looked up): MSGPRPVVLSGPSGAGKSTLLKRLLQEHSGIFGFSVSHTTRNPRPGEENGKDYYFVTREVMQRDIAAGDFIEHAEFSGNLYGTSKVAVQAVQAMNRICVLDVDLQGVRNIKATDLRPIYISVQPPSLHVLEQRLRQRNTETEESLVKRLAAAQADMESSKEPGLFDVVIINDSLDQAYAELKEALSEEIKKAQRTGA
Chain of UniProt Q7Z5P4 (whole entry, looked up): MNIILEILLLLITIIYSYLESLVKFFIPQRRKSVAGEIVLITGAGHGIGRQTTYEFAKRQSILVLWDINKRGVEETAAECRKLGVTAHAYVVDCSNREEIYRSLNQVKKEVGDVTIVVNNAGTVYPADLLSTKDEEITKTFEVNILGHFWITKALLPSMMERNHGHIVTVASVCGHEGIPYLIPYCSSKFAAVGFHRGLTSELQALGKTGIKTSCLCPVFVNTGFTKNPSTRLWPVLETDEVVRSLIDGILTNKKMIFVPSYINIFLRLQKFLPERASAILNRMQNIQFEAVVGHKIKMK
Chain of UniProt Q13489 (whole entry, looked up): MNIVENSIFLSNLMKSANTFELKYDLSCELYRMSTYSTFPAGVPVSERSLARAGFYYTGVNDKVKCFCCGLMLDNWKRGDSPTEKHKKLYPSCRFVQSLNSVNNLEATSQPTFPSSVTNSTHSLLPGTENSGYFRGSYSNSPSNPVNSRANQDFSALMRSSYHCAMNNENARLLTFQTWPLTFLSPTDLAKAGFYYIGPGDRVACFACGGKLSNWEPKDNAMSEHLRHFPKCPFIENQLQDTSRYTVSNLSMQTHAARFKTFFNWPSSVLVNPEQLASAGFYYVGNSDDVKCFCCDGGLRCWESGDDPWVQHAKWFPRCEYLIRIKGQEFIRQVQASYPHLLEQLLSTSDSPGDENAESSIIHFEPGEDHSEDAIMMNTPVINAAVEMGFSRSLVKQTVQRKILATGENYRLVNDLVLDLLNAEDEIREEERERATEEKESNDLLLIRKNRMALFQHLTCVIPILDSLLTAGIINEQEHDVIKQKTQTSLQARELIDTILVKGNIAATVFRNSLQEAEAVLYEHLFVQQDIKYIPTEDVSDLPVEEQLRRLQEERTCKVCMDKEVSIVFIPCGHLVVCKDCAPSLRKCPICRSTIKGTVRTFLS
Chain of UniProt Q6PCD5 (whole entry, looked up): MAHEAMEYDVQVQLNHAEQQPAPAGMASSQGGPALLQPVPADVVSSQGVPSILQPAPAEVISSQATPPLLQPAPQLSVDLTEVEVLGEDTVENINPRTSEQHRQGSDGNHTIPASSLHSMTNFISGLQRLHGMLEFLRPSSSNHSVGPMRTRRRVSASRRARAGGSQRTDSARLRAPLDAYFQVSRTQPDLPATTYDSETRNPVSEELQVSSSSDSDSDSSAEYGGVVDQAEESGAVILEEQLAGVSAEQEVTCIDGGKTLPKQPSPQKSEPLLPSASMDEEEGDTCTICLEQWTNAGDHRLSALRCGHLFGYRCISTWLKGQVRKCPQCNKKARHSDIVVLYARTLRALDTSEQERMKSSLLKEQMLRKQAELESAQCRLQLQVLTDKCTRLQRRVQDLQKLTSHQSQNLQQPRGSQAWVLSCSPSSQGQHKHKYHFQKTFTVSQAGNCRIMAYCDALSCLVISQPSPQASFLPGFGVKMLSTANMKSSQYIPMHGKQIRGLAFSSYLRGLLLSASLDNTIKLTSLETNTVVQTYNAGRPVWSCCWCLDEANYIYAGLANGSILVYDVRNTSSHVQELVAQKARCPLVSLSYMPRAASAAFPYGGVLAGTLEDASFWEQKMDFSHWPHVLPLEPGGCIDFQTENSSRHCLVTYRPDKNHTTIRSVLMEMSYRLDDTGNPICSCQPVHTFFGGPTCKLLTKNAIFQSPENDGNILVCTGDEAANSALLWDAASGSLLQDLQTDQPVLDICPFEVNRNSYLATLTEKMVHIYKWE
Chain of UniProt P70245 (whole entry, looked up): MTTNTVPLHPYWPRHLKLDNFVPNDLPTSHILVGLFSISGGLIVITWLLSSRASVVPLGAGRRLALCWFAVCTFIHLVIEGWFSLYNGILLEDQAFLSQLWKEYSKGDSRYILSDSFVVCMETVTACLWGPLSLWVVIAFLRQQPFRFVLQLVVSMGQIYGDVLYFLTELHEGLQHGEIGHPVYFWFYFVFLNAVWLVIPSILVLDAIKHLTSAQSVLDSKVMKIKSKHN
Chain of UniProt Q92633 (whole entry, unmodified, looked up): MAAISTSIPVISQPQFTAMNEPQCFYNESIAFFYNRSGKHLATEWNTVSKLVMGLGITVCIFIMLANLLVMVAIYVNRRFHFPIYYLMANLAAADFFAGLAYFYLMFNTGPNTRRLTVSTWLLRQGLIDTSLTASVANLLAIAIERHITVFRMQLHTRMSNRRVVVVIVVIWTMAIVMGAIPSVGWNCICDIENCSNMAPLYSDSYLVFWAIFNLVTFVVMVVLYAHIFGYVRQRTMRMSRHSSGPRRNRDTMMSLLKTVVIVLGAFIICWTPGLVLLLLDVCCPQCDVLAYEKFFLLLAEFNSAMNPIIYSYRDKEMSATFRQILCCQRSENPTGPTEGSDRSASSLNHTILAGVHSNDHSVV

Compound	target	assay	system	conditions	scale	endpoint	value
C[S+](CC[C@H](N)C(=O)[O-])C[C@H]1O[C@@H](n2cnc3c(N)ncnc32)[C@H](O)[C@@H]1O (some centres unmarked)	KMT2C (Homo sapiens, UniProt Q8NEZ4)	substrate, enzyme-coupled methylation		with: H3 peptide 100 µM		apparent Vmax	0.9 ± 0.06 µM/min
CC[C@@H]1[C@H](F)C(=O)N[C@@H]1COc1nccc2cc(C(N)=O)c(OC)cc12	PIKFYVE (Homo sapiens, UniProt Q9Y2I7)	ATP probe binding, KiNativ profiling, measured: ATP loop probe site	THP-1 cell lysate	0.01 mM		inhibition	11%
COc1cccc(OC[C@@H]2CN(CCN3CCc4ccccc43)CCO2)c1	HTR2A	radioligand binding		concentration not given, with: [3H]ketanserin		inhibition	78%
CCCC[C@H](NC(C)=O)C(=O)N[C@@H](CO)C(=O)N[C@H](C(=O)N1CCC[C@H]1C(=O)N[C@@H](C)C(=O)N[C@@H](CCCNC(=N)N)C(=O)N[C@@H](CCCNC(=N)N)C(=O)N[C@@H](CCCNC(=N)N)C(=O)N[C@@H](CC(C)C)C(=O)N[C@@H](CCCC)C(=O)N[C@@H](CCCNC(=N)N)C(=O)N[C@@H](CC(=O)O)C(=O)N[C@@H](Cc1ccccc1)C(=O)N[C@@H](CCCCN)C(=O)N[C@@H](CCCNC(=N)N)C(=O)N[C@@H](CC(C)C)C(=O)N[C@@H](CCC(N)=O)C(N)=O)[C@@H](C)O	UBA1 (Homo sapiens, UniProt P22314)	HDX-MS		10 s, with: UBE1 at 1:1 molar ratio	relative to: undeuterated peptide	relative deuterium uptake	13.6 Da and 13.8 Da and 13 Da
Cc1ccc(C[C@H](NC(=O)OC(C)(C)C)C(=O)NC/C=C/S(=O)(=O)c2ccccc2)cc1	Cathepsin B (CTSB, Homo sapiens, UniProt P07858)	inhibitor		with: Z-Arg-Arg-pNA		kinact/Ki	161 M⁻¹ s⁻¹
COc1ccc(C(=O)COc2ccc(N3C(=O)[C@@H]4[C@@H]5C=C[C@@H]([C@H]6C[C@@H]56)[C@@H]4C3=O)cc2)cc1	3-beta-hydroxysteroid-Delta(8),Delta(7)-isomerase (Mus musculus, UniProt P70245)		Mut6	concentration not given, 24 h		8,9-dehydrocholesterol level	no effect
CN(C)C(=O)CCSC(SCCC(=O)O)c1cccc(/C=C/c2ccc3ccc(Cl)cc3n2)c1 (centres unmarked)	UGT1A1 (Homo sapiens, UniProt P22309)	glucuronidation, inhibitor	cell lysate	25 µM, with: genistein		genistein glucuronide formation	decreased
O=c1cc(-c2ccc([N+](=O)[O-])cc2)[nH]c2c(-c3ccc(Cl)cc3)c(Cc3ccccc3)nn12	MICAL-like protein 1 (MICALL1, Homo sapiens, UniProt Q8N3F8)	thermal stability, binder, thermal proteome profiling	RD, cell lysate	50 µM, 0.5% DMSO	relative to: DMSO vehicle	melting temperature shift	3.8 °C
CC1(C)CC2(C)OC(=O)NC2(C)c2ccccc21 (centres unmarked)	Baculoviral IAP repeat-containing protein 3, BIR1 domain (BIRC3, Homo sapiens, UniProt Q13489)	binding, affinity selection mass spectrometry			relative to: other proteins in batch	log fold enrichment	-0.0374
CCS(=O)(=O)N1CC(CC#N)(n2cc(-c3ncnc4[nH]ccc34)cn2)C1	ORM1 (Homo sapiens, UniProt P02763)			with: K^+		change in binding constant	-28.3%
C=CC(=O)N1CCN(c2nc(OC[C@@H]3CCCN3C)nc3c(F)c(-c4nc(N)cc(C)c4C(F)(F)F)c(Cl)cc23)[C@@H](C)C1	GTPase KRas, GDP-bound (KRAS, Homo sapiens, UniProt P01116, G12D)	binding, surface plasmon resonance				association rate constant	63800 ± 17000 M⁻¹ s⁻¹
O=C(COP(=O)(O)O)[C@@H](O)[C@H](O)[C@H](O)COP(=O)(O)O	Actin, aortic smooth muscle (ACTA2, Homo sapiens, UniProt P62736)	thermal proteome profiling, measured: ACTA2	HepG2 cell lysate	concentration not given, 57 over 37 °C, mean	relative to: compound over control	thermal stability ratio	0.62
C[C@H](O)c1ccc(NS(=O)(=O)c2ccc(OCC3CCC3)c(Cl)c2)c2nn(C)cc12	17-beta-hydroxysteroid dehydrogenase 13 (Homo sapiens, UniProt Q7Z5P4)	substrate, NADH fluorescence				Vmax	0.02 nM NADH/s/nM enzyme
NCCCCC(=O)O	SLC6A6 (Homo sapiens, UniProt P31641, Y138A)	binding, microscale thermophoresis		122 nM, room temperature, with: 50 nM labelled protein	higher = more binding	normalised MST signal	-0.00791
Nc1ncnc2c1ncn2[C@@H]1O[C@H](COP(=O)(O)OP(=O)(O)OP(=O)(O)O)[C@@H](O)[C@H]1O	P2X purinoceptor 7 (P2rx7, Rattus norvegicus, UniProt Q64663, I214G)	ion current, agonist, two-electrode voltage clamp	Xenopus laevis oocytes	3.7 µM	relative to: highest concentration response	normalized current	0
O=[N+]([O-])c1ccc(O[C@@H]2O[C@H](CO)[C@@H](O)[C@H](O)[C@H]2O)cc1	bglA (Thermotoga maritima, UniProt Q08638)	substrate, absorbance		pH 6.8, 37 °C, with: p-nitrophenyl β-D-glucopyranoside 0.125-4 mM		kcat	85 ± 4 s⁻¹
Nc1ncnc2c1ncn2[C@@H]1O[C@H](COP(=O)(O)CP(=O)(O)OP(=O)(O)O)[C@@H](O)[C@H]1O	P2X purinoceptor 1 (P2RX1, Homo sapiens, UniProt P51575, E122A)	calcium influx		31.6 µM	relative to: ionomycin response	calcium influx	100% and 94.4%
CN1CCN(c2cc(-c3ccncc3)c(-c3ccc4ccccc4c3)nn2)CC1	ADCYAP1R1 (Homo sapiens, UniProt P41586)	agonist, FLIPR		12.5 µM		activation	-1.5%
COc1cc2c(cc1OC)C(=O)N(CCCCN1CCN(c3ccccc3OC)CC1)C2	HTR2A	radioligand binding		concentration not given, with: [3H]ketanserin		inhibition	90.3%

Compound	target	assay	system	conditions	scale	endpoint	value
CN(CCCCNC(=O)c1cc2ccccc2[nH]1)[C@@H]1Cc2cccc3[nH]c(=O)n(c23)C1	HTR2C (Homo sapiens, UniProt P28335)	binding		with: [3H]5-HT		Hill slope	-0.75 ± 0.04
C[C@@H](c1ccc(-n2cnc3c(N)ncnc32)cc1)N1CCc2nn(C)c(Cc3ccccc3)c2C1=O	MAP3K13 (Homo sapiens, UniProt O43283)	KINOMEscan		0.1 µM	relative to: DMSO control	remaining binding	73%
CCc1oc2c([C@H](CO)N(CC)CC)cccc2c1C	LPAR1 (Homo sapiens, UniProt Q92633, W271F)	Gi activation, agonist, NanoBiT G-protein dissociation	HEK293T	W271F mutant, unit not given	relative to: wild type	change in Emax	0.926
O=C(CCCCCCC(=O)Nc1ccccc1)NO	HDAC8 (Homo sapiens, UniProt Q9BY41)	ITC	Tris-HCl buffer	concentration not given, 298 K		binding stoichiometry	0.9
N=C(N)Nc1nc2ccccc2[nH]1	HVCN1 (Homo sapiens, UniProt Q96D96, F150A/F182W)	proton current, inhibitor, inside-out patch clamp				Hill coefficient	0.91 ± 0.03
Nc1ccc2cc3ccc(N)cc3nc2c1	Chymotrypsinogen A, activated (alpha-chymotrypsin) (Bos taurus, UniProt P00766)	isothermal titration calorimetry		concentration not given, 25 °C, with: 0.5 M TMAO		entropic contribution to binding	-28.4 ± 0.884 kcal/mol
Cc1nc(N)sc1-c1csc(Nc2ccc([N+](=O)[O-])cc2)n1	Protein-lysine 6-oxidase (Homo sapiens, UniProt P28300)	inhibitor		10 µM, no preincubation		enzyme inhibition	inhibited
O=c1nc(SCc2cc(F)cc(C(F)(F)F)c2)nc(SCc2csc3ccc(Cl)cc23)[nH]1	TOP2A (Homo sapiens, UniProt P11388)	DNA relaxation		1.95 µM		mean relaxed DNA	93.8%
C=C1CN(S(=O)(=O)c2ccc(C)cc2)CCCN(Cc2ccccc2)CCCN(S(=O)(=O)c2ccc(C)cc2)C1	Protein transport protein Sec61 subunit alpha isoform 1 (Homo sapiens, UniProt P61619)	reporter gene, Dual-Glo luciferase	HEK293 with CD4 signal peptide-FLuc		relative to: mock	FLuc/RLuc ratio	1.9
Nc1ncnc2c1ncn2[C@@H]1O[C@H](CO[P@](=O)(O)O[P@](=O)(O)O[P@@](=O)(O)S)[C@@H](O)[C@H]1O	GUK1 (Homo sapiens, UniProt Q16774)	ITC		molar ratio 2.388		ΔH	-0.364 kcal/mol
Cc1cccc(N2CC(C(=O)O)CC2=O)c1 (centres unmarked)	RFWD3 (Homo sapiens, UniProt Q6PCD5)	binding, affinity selection mass spectrometry			relative to: other proteins in batch	fold enrichment	0.85
CC1=C(/C=C/C(C)=C/C=C/C(C)=C/C=O)C(C)(C)CCC1	Rhodopsin, G270S/S144C (RHO, Bos taurus, UniProt P02699, G270S/S144F)	retinal entry, Alexa488 FRET	lipid bicelles	28 °C, G270S mutant	relative to: wild-type rhodopsin	relative kon	1.08 ± 0.27
Cc1ccc(N2CC(C(N)=O)CC2=O)cc1 (centres unmarked)	WD repeat-containing protein 55 (WDR55, Homo sapiens, UniProt Q9H6Y2)	binding, affinity selection mass spectrometry			relative to: other proteins in batch	fold enrichment	0.991
Nc1nc2c(ncn2[C@@H]2O[C@H](COP(=O)(O)O)[C@@H](O)[C@H]2O)c(=O)[nH]1	GUK1 (Homo sapiens, UniProt Q16774, T83A)	binding, ITC				-TΔS	6.44 kcal/mol
c1ccc(-c2n[nH]cc2-c2ccnc3ccccc23)nc1	Protein kinase C-like 1 (Candida albicans, UniProt P43057)	kinase binding, competitor, MIB/MS competition, measured: PKC1	Candida albicans cell lysate	100 nM	relative to: DMSO	log2 fold change	1.35
C=CC(=O)N1CCC(COCC(=O)N2CCN(c3nc(-c4cnc(N)nc4C(F)F)nc(N4CCOC[C@@H]4C)n3)CC2)CC1	GRK2 (Homo sapiens, UniProt P25098)	KINOMEscan		1 µM		remaining binding	100%
NC(=O)C1=CN([C@@H]2O[C@H](COP(=O)(O)OP(=O)(O)OC[C@H]3O[C@@H](n4cnc5c(N)ncnc54)[C@H](O)[C@@H]3O)[C@@H](O)[C@H]2O)C=CC1	FSP1, ancestral	oxidase activity, substrate		with: atmospheric O2		kcat	0.92 ± 0.08 s⁻¹
c1cncc(OC[C@H]2CN(CCN3CCc4ccccc43)CCO2)c1	HTR2A	radioligand binding		concentration not given, with: [3H]ketanserin		inhibition	66%
N[C@@H](CC(=O)O)C(=O)O	uncharacterized protein (Ixodes scapularis, UniProt A0A0N9E2I2)	L-glutamate-like response, two-electrode voltage clamp	Xenopus laevis oocytes	100 µM		activity	inactive
